Experimental data pooled from the literature.
Protocols differ between the studies behind these lines. Values joined by “and” are separate records of one study, mostly repeats; a detail may differ. Numbers after ± are the reported error.

CN1CCC[C@]1(C)/C=C/S(=O)(=O)NC(=O)Nc1c2c(cc3c1CCC3)CCC2 — IL-18 inhibition (human, whole blood ex vivo; 12.5 mg twice daily, day 14, 12 h, multiple ascending dose, added: LPS and ATP): 72.3%
COCC1CN(C2CCN(c3cc(OC)c(Nc4ncc(Br)c(Nc5ccc6c(c5P(C)(C)=O)OCCO6)n4)cc3C)CC2)C1 — partial response (RECIST 1.1; advanced EGFR-mutant NSCLC patients; 30 mg once daily): 0%
COCCOCCOCCNC(=O)Cc1cc(CC(=O)N[C@H]2C[C@H]3C(=O)Nc4cc(OCCOCCOCCOC)cc(n4)C(=O)N4CCC[C@H]4C(=O)Nc4cc(OCCOCCOCCOC)cc(n4)C(=O)N4CCC[C@H]4C(=O)Nc4cc(OCCOCCOCCOC)cc(n4)C(=O)N3C2)cc(CC(=O)N[C@H]2C[C@H]3C(=O)Nc4cc(OCCOCCOCCOC)cc(n4)C(=O)N4CCC[C@H]4C(=O)Nc4cc(OCCOCCOCCOC)cc(n4)C(=O)N4CCC[C@H]4C(=O)Nc4cc(OCCOCCOCCOC)cc(n4)C(=O)N3C2)c1 — ΔH (anion binding, ITC; water; 298 K, stoichiometry fixed at 1.00, added: sodium chloride): 10.1 ± 3.6 kJ mol^–1
NC[C@@H](C(=O)Nc1ccc(-c2cn[nH]c2)cc1)c1ccccc1 — IOP (tonometry; Macaca cyclopis, ocular normotensive; ocular, 0.03%, 52 h): 17.3 mmHg
COc1ccc(C(=O)CCc2cc(C(CCc3ccc(O)cc3OC)c3ccc(O)cc3)c(O)cc2OC)cc1 (racemic) — LTB4 isomers level (human blood; 0.3 µM, added: A23187): 349 ± 137 pg/mL
COc1c(Cl)cccc1Nc1c(-c2ccncc2C#C[C@@]2(C)CCCN2C(=O)/C=C/CN(C)C)[nH]c2c1C(=O)NCC2 — tumour growth inhibition (NCI-H2073 EGFR SVD knock-in xenograft, BALB/c nude mice; 50 mg/kg once daily, 21 days): 107%
CC(CCC(=O)NCc1ccc(C(=O)NO)cc1)C1CCC2C3C(O)CC4CC(O)CCC4(C)C3CCC12C (stereo not shown) — relative abundance (measured: GCA; PCK rat (Pkhd1 mutant), bile; oral gavage, dose not given, 5 months; reference: total bile acids): 11.9%
O=C(NS(=O)(=O)c1cccs1)c1cc2ccccc2n1Cc1ccc(Br)c2ccccc12 — decrease in serum uric acid (mouse, acute hyperuricaemia model; 1 mg/kg): 90.6%
CC(=O)[O-].O.O.O.O.[Ni+2].[O-]c1ccc(Br)cc1C=NCCN1CCOCC1 — ferric reducing power (FRAP; 200 µM): 50.9%
COC(=O)C1CN1S(=O)(=O)c1ccc2cc(C)ccc2c1 (stereo not shown) — tumour growth inhibition (mouse, Lewis lung carcinoma; ip, 100 mg/kg, 264 h): 48%
COc1cc(O)ccc1CCC(c1ccc(O)cc1)c1cc2c(c(C)c1O)OC(c1ccc(O)cc1)CC2 (mixture of isomers) — amount (measured: 4-HDHA; human whole blood; 0.3 µM, added: Escherichia coli): 86 ± 35 pg/mL blood
CCCCCCCCCCCCCCCC(=O)OCC(CSC[C@H](N)C(=O)N[C@@H](CO)C(=O)N[C@@H](CCCCN)C(=O)N[C@@H](CCCCN)C(=O)N[C@@H](CCCCN)C(=O)N[C@@H](CCCCN)C(=O)NCCCCCC(=O)N[C@@H](CCCCN)C(=O)N[C@@H](CC(C)C)C(=O)N[C@H](C(=O)N[C@@H](Cc1ccccc1)C(=O)N[C@@H](Cc1ccccc1)C(=O)N[C@@H](Cc1ccc2ccccc2c1)C(=O)O)C(C)C)OC(=O)CCCCCCCCCCCCCCC (stereo partly shown) — cleaved caspase-3 level (APP/PS1 transgenic mouse, hippocampus; intrahippocampal, dose not given, unit not given; reference: injected over adjacent side): 0.25 and 0.000301 and 1.2 and 0.554 and 0.201
COC1CN([C@H]2CC[C@H]([C@@]3(C)Oc4c(Cl)cc(C(=O)NCc5c(SC)cc(C)[nH]c5=O)c(C)c4O3)CC2)C1 — log2 fold change (RNA-seq, measured: F5; human cancer patients, whole blood; dose not given, 24 h, PRC2 target gene; reference: pretreatment sample): 1.82
COc1ccc(NC(=O)c2ccc3[nH]c(-c4ccc(N(C)C)cc4)nc3c2)cn1 — tumour volume (CT26, BALB/c nude mice, subcutaneous graft; dose not given, day 2): 82.7 mm3 and 171 mm3 and 161 mm3 and 87.1 mm3 and 106 mm3
O=[N+]([O-])[O-].O=c1c(C=NN=C([S-])Nc2ccccc2)coc2ccccc12.[Cu+2].c1ccc(-c2ccccn2)nc1 — supercoiled DNA form (DNA cleavage; supercoiled pUC19 DNA; 100 µM, 4 h, 37 °C, no reducing agent, added: DNA 40 µM): 90%
Fc1cccc(-n2cc(-c3ccccc3)nc2NCc2ccc(C(F)(F)F)c(Br)c2)c1 — rate constant (DPPH radical scavenging; methanol; first order kinetics): 0.301 ± 0.0409 s⁻¹
O=[N][Fe]1([N]=O)[S](CCO)[Fe]([N]=O)([N]=O)[S]1CCO — serum total cholesterol (aged C57BL/6JNarl mice, Western diet, serum; oral, 2.65 mg/kg daily, 16 weeks): 166 ± 39.8 mg/dL
O=S(=O)(NCc1ccncc1)c1ccc(C2CCCCC2)cc1 — amyloid–microglia colocalization reduction (immunohistochemistry; 5XFAD mice male 1-year-old, hippocampus; ip, 0.3 mg/kg daily, 6 wk; reference: vehicle): ~61%
COc1ccccc1-c1ccncc1C(=O)Nc1nnc(OCc2ccc(Cl)cc2)s1 — RAD51 foci-positive nuclei (immunofluorescence; MEFs, Mus musculus; 10 µM, 24 h pretreatment, 6 h after irradiation, added: ionising radiation 2 Gy): 29.3% and 22.7% and 24.2%

Some of these lines once more:
Fc1cccc(-n2cc(-c3ccccc3)nc2NCc2ccc(C(F)(F)F)c(Br)c2)c1 — rate constant (DPPH radical scavenging; methanol; first order kinetics): 0.301 ± 0.0409 s⁻¹
O=[N][Fe]1([N]=O)[S](CCO)[Fe]([N]=O)([N]=O)[S]1CCO — serum total cholesterol (aged C57BL/6JNarl mice, Western diet, serum; oral, 2.65 mg/kg daily, 16 weeks): 166 ± 39.8 mg/dL
